Results collected from several papers.
Each line is one published result; not all experiments were run side by side. Numbers after ± are the reported error.
LGALS3: Galectin-3 (LGALS3, Homo sapiens, UniProt P17931)
GLP1R: Glucagon-like peptide 1 receptor (GLP1R, Homo sapiens, UniProt P43220)

CCCN(CC(=O)N(CCC)CC(=O)N(CCC)CC(=O)N(CCC)CC(=O)N(CCC)CC(=O)N(CCC)CC(=O)N(CC(N)=O)Cc1cn(CCCNC(=O)CCCOc2cccc(-c3nc4ccc(-c5nc6ccc(N7CCN(C)CC7)cc6[nH]5)cc4[nH]3)c2)nn1)C(=O)CNCc1cn(CCCNC(=O)CCCOc2cccc(-c3nc4ccc(-c5nc6ccc(N7CCN(C)CC7)cc6[nH]5)cc4[nH]3)c2)nn1  multivalent effect (MBNL1–r(CUG)109 complex; MBNL1 displacement; 0.65 pmol r(CUG)109; unit not given, added: yeast tRNA 3.7 µM; reference: monomer 2 IC50 per module): < 1.8
O=C1CC(c2ccoc2)c2ccc(NC(=O)c3ccccc3)cc2N1 (stereo not shown)  activity at saturation (Aromatase (CYP19A1, Homo sapiens, UniProt P11511); inhibitor, MFC to HFC fluorescence; concentration not given): 11%
CN(C1COC1)C(C)(C)/C=C(\C#N)C(=O)N1CCC[C@H]1Cn1nc(-c2ccc(Oc3ccccc3)cc2F)c2c(N)ncnc21  target occupancy (Tyrosine-protein kinase BTK (BTK, Homo sapiens, UniProt Q06187); AlphaScreen; Ramos; 1 µM, 18 h after washout): 59 ± 17%
C[C@@H]1O[C@@H](O[C@@H]2[C@H](O)[C@H](O[C@@H]3[C@@H](O)[C@@H](O)[C@H](O[C@@H]4[C@H](O)[C@H](O[C@@H]5[C@@H](O)[C@@H](O)C(O)O[C@H]5C)O[C@H](CO)[C@H]4O)O[C@H]3C)O[C@H](CO)[C@H]2O)[C@H](O)[C@H](O)[C@H]1O (stereo partly shown)  binding (CD209 antigen (CD209, Homo sapiens, UniProt Q9NNX6); binding to extracellular domain, STD NMR; concentration not given, protein:ligand ratio 1:30): no binding
CC(=O)N[C@H]1[C@@H](O[C@H](C)[C@H](NC(=O)[C@@H](NC(=O)CNC(=O)[C@@H](N)Cc2c[nH]cn2)C(C)C)C(=O)N[C@@H](CO)C(=O)N[C@@H](C)C(=O)N2CCC[C@H]2C(=O)N[C@@H](CC(=O)O)C(=O)N[C@H](C(=O)N[C@@H](CCCNC(=N)N)C(=O)N2CCC[C@H]2C(=O)N[C@@H](C)C(=O)N2CCC[C@H]2C(=O)NCC(=O)N[C@@H](CO)C(N)=O)[C@@H](C)O)O[C@H](CO)[C@H](O)[C@@H]1O[C@@H]1O[C@H](CO)[C@H](O)[C@H](O)[C@H]1O  binding stoichiometry (LGALS3; isothermal titration calorimetry; concentration not given, full-length protein): 0.87
CCC(=O)N(C)c1ccc(Cl)c(Cl)c1  fold activation (Aryl hydrocarbon receptor (AHR, Homo sapiens, UniProt P35869); reporter gene, agonist; 32 µM; reference: vehicle): 11.2 fold
Cn1c(=S)c2[nH]c(SCCc3ccccc3)nc2n(C)c1=O  remaining activity (Androgen receptor (AR, Homo sapiens, UniProt P10275); reporter gene, antagonist, PSA-luciferase; HeLa-A6; 10 µM, 24 h, added: 5 nM dihydrotestosterone; reference: maximal activity): 114%
CC(=O)N[C@H](Cc1ccc2ccccc2c1)C(=O)N[C@H](Cc1ccc(Cl)cc1)C(=O)N[C@H](Cc1cccnc1)C(=O)N[C@@H](CO)C(=O)N[C@@H](Cc1ccc[n+](C)c1)C(=O)N[C@H](CCCCNC(C)C)C(=O)N[C@@H](CC(C)C)C(=O)N[C@@H](CCCCNC(C)C)C(=O)N1CCC[C@H]1C(=O)N[C@H](C)C(N)=O  EC50 (Gonadotropin-releasing hormone receptor III (Gallus gallus, UniProt Q5EFE0); inositol phosphate production, agonist; COS-7 transfected; 1 h): 4.86 µM
COc1c(F)c(F)c(C(=O)N[C@H]2[C@@H](O)[C@@H](CO)O[C@@H](S[C@@H]3O[C@H](CO)[C@H](O)[C@H](NC(=O)c4c(F)c(F)c(OC)c(F)c4F)[C@H]3OS(=O)(=O)O)[C@@H]2O)c(F)c1F  ΔG (LGALS3; ITC; pH 7.2, 4% DMSO): -9.058 ± 0.0478 kcal/mol
CC(C)C[C@H](NC(=O)[C@H](Cc1ccc(O)cc1)NC(=O)[C@@H](CCCNC(=N)N)NC(=O)[C@@H](CO)NC(=O)[C@H](Cc1ccccc1)NC(=O)[C@H](CC1CCCCC1)NC(=O)[C@@H](N)CC(=O)O)C(=O)N[C@@H](Cc1c[nH]c2ccccc12)C(=O)N[C@@H](CO)C(=O)O  koff (Urokinase plasminogen activator surface receptor (Homo sapiens, UniProt Q03405); binding, SPR): 0.0076 s⁻¹
COc1ccc(CNc2nc(-c3ccc(OC)c(OC)c3)cc(C(F)(F)F)n2)cc1  Emax (GLP1R; cAMP accumulation, positive allosteric modulator; HEK-293T overexpressing GLP1R; added: EC20 GLP-1): 54 ± 4.3%
Cc1cc(C)c2sc(NC(=O)C3CCN(S(=O)(=O)c4ccc(F)cc4)CC3)nc2c1  Vmax (N-acyl-phosphatidylethanolamine-hydrolyzing phospholipase D (Napepld, Mus musculus, UniProt Q8BH82); 10 µM, added: flame-NAPE substrate): 421 RFU/min
CCc1nc2cc3ccccc3cc2cc1C(=O)N[C@@H](CCCCN)C(=O)N[C@@H](C/C=C/C[C@H](NC(=O)[C@H](CCCCN)NC(=O)c1cc2cc3ccccc3cc2nc1CC)C(=O)N1CCC[C@H]1C(=O)NCCCN)C(=O)N1CCC[C@H]1C(=O)NCCCN  residence time ((CUG)10 RNA; SPR): 257 s
CC(Oc1cc(-c2ccccc2)nc2cnccc12)C(=O)N(C)c1ccccc1 (stereo not shown)  lipophilic efficiency (Translocator protein (Tspo, Rattus norvegicus, UniProt P16257); binding; rat brain homogenate; pKi minus clogD): 5.4 ± 0.3
COc1ccc(-c2cc(C(F)(F)F)nc(NCc3ccccc3)n2)cc1OC  cooperativity factor beta (GLP1R; efficacy cooperativity, allosteric modulator; HEK-293T overexpressing GLP1R; added: GLP-1): 2
CC(=O)N1C[C@H](O)C[C@H]1C(=O)NCc1ccccc1  CPMG signal loss (von Hippel-Lindau disease tumor suppressor, with Elongin B/C (VHL, Homo sapiens, UniProt P40337); ligand-observed 1H NMR; 1 mM, 278 K, added: VCB complex 10 µM): 45%
CC(C)C1=CC23CCC4C(C)(C(=O)O)CCCC4(C)C2CC1C(C(=O)O)C3C(=O)O (stereo not shown)  Kd ratio (Replication protein A 70 kDa DNA-binding subunit, DBD-F (RPA1, Homo sapiens, UniProt P27694); fluorescence anisotropy competition; reference: full-length RPA over this construct): 3 fold
COc1ccc(/C=C/C(=O)NC[C@H]2O[C@H](OC)[C@@H](O)[C@@H](O)[C@@H]2O)cc1OC  −TΔS (Fucose-binding lectin PA-IIL (lecB, Pseudomonas aeruginosa, UniProt Q9HYN5); binding, ITC; 25 °C): -1.18 ± 0.36 kcal/mol
Cc1ccc2ccc3ccc(C)nc3c2n1.Cc1ccc2ccc3ccc(C)nc3c2n1.O.[Cl-].[Cl-].[Cl-].[Yb+3]  ΔG° (Albumin (ALB, Bos taurus, UniProt P02769); fluorescence quenching; 301 K): -7.615 ± 0.00956 kcal/mol
CC[C@H](C)[C@H](NC(=O)[C@@H](NC(=O)[C@H](Cc1ccc(O)cc1)NC(=O)[C@H](C)NC(=O)[C@H](CC(N)=O)NC(=O)[C@H](CCC(=O)O)NC(=O)[C@H](Cc1ccccc1)NC(=O)[C@@H](NC(=O)[C@H](CO)NC(=O)[C@H](CCC(=O)O)NC(=O)[C@H](CCCCN)NC(=O)[C@H](Cc1ccccc1)NC(=O)[C@@H](N)CCCCN)C(C)C)C(C)C)C(=O)N[C@@H](Cc1ccc(O)cc1)C(=O)N[C@@H](CO)C(=O)N[C@@H](CO)C(=O)N[C@@H](CCSC)C(=O)N[C@@H](CC(C)C)C(=O)N[C@@H](Cc1ccc(O)cc1)C(=O)N[C@@H](CCCNC(=N)N)C(N)=O  koff (Fibroblast growth factor 14 (Homo sapiens, UniProt Q92915)): 0.158 ± 0.0076 s⁻¹
CC(C)(Cn1cc(-c2cnc3cccnn23)nn1)c1c[nH]c2ccccc12  fold shift of EC50 (GLP1R; positive allosteric modulator, item: cAMP; CHO-K1 expressing GLP1R; concentration not given, added: GLP-1(7-36); reference: GLP-1 alone): 4 fold
O=C(O)C1OC(OC2C(C(=O)O)OC(OC3C(C(=O)O)OC(OC4C(C(=O)O)OC(O)C(O)C4O)C(O)C3O)C(O)C2O)C(O)C(O)C1O (stereo not shown)  ΔH (Beta-lactoglobulin (LGB, Bos taurus, UniProt P02754, A134V/G80D); isothermal titration calorimetry; pH 2.65): -1.2 kcal/mol
CNc1ccccc1C(=O)O[C@H]1C[C@H](n2cnc3c(N)ncnc32)O[C@@H]1COP(=O)(O)OP(=O)(O)O  ∆H of ligand binding (Unconventional myosin-Va (Gallus gallus, UniProt Q02440, D297C/G292C/I296C/S293C/V295G); van't Hoff analysis; concentration not given, added: 10 mM Mg2+): -7.6 ± 1.4 kcal/mol
O=C(CCCCCCS)Nc1ccccc1  TΔS (Histone deacetylase 8 (HDAC8, Homo sapiens, UniProt Q9BY41); ITC; Tris-HCl buffer; pH 7.5, 25 °C): 2.8 ± 0.3 kcal/mol
COc1cc2c(cc1OC)C(c1ccc(F)cc1F)N(CCCOc1ccc(CCC(=O)O)cc1)CC2 (stereo not shown)  binding (Peroxisome proliferator-activated receptor delta (PPARD, Homo sapiens, UniProt Q03181); TR-FRET competitive binding; 500 pM to 100 µM): no binding
